Results of several laboratories.
Organism: Staphylococcus aureus

Compound = CC(C)CCCCCCCCC/C=C/C(=O)N[C@@H](CC(N)=O)C(=O)N[C@H]1CNC(=O)[C@@H]2CCCN2C(=O)[C@H](C(C)C)NC(=O)[C@@H](CN)NC(=O)CNC(=O)[C@H](CC(=O)O)NC(=O)CNC(=O)[C@H](CC(=O)O)NC(=O)[C@H](CC(=O)O)NC(=O)[C@H]2CCCCN2C1=O; assay = broth microdilution; test system = BR-VRSA strain 880, Mueller-Hinton broth, Mg2+ 10 mg/L; setting = 16 h, together with: Ca2+ 5 mM; MIC = 1 µg/mL
Compound = Cc1ccc2[nH]c3c(c2c1)CCCC3NCCc1ccc(O)cc1 (stereo not shown); assay = broth microdilution; test system = ATCC 29213; MIC = 16 µg/mL
Compound = CCCCCCCCCCCCCC(=O)N[C@H]1C(=O)N[C@@H](CN)C(=O)N[C@@H](CO)C(=O)N[C@@H](Cc2ccc(O)cc2)C(=O)O[C@H]1C; test system = SH1000; setting = together with: lysophosphatidylethanolamine, molar ratio 2; MIC = 2 µg/mL
Compound = CC[C@H](C)[C@H](NC(=O)[C@@H](CCCNC(=N)N)NC(=O)[C@H](CCCNC(=N)N)NC(=O)[C@@H]1CCCN1C(=O)[C@@H]1CCCN1C(=O)[C@H](CCCNC(=N)N)NC(=O)[C@@H]1CCCN1C(=O)[C@H](CCCNC(=N)N)NC(=O)[C@@H]1CCCN1C(=O)[C@H](CC(C)C)NC(=O)[C@H](Cc1c[nH]cn1)NC(=O)[C@@H]1CCCN1C(=O)[C@@H]1CCCN1C(=O)[C@H](CCCCN)NC(=O)[C@H](CC(=O)O)NC(=O)[C@@H](N)C(C)C)C(=O)N[C@@H](Cc1ccc(O)cc1)C(=O)N[C@@H](CC(N)=O)C(=O)N[C@H](CCCNC(=N)N)C(N)=O; assay = broth microdilution; test system = DSM 6247; setting = 18 h, 37 °C, 25% MHB2; MIC = 128 µg/mL
Compound = CC(=O)N[C@@H](CC(C)C)C(=O)N[C@H]1CSSC[C@@H](C(=O)N2CCC[C@H]2C(N)=O)NC(=O)[C@H](CCCCN)NC(=O)[C@H](C(C)C)NC(=O)[C@H](CCCCN)NC(=O)CNC(=O)[C@H](CC(C)C)NC(=O)[C@H](Cc2ccccc2)NC(=O)[C@H](CCCCN)NC(=O)[C@H](CC(C)C)NC(=O)[C@H](CCC(=O)O)NC(=O)[C@H](Cc2ccccc2)NC(=O)[C@H](CCCNC(=N)N)NC(=O)[C@H](CCCCN)NC(=O)[C@H](CC(C)C)NC(=O)[C@H](CC(=O)O)NC(=O)[C@@H]2CCCN2C(=O)[C@H](CCCCN)NC(=O)[C@H](C(C)C)NC(=O)[C@H](CCCCN)NC(=O)[C@H](CCCCN)NC(=O)[C@H](CCCCN)NC1=O; assay = broth dilution; test system = laboratory strain; setting = 24 h; MIC = > 40 µM
Compound = CN[C@H](CC(C)C)C(=O)N[C@H]1C(=O)N[C@@H](CC(N)=O)C(=O)N[C@H]2C(=O)N[C@H]3C(=O)N[C@H](C(=O)N[C@H](C(=O)NCc4cn(CC(=O)N[C@H](C(=O)N[C@@H](CCN)C(=O)N[C@H]5CCNC(=O)[C@H]([C@@H](C)O)NC(=O)[C@H](CCN)NC(=O)[C@H](CCN)NC(=O)[C@H](CC(C)C)NC(=O)[C@@H](CC(C)C)NC(=O)[C@H](CCN)NC5=O)[C@@H](C)O)nn4)c4cc(O)cc(O)c4-c4cc3ccc4O)[C@H](O)c3ccc(c(Cl)c3)Oc3cc2cc(c3O[C@@H]2O[C@H](CO)[C@@H](O)[C@H](O)[C@H]2O[C@H]2C[C@](C)(N)[C@H](O)[C@H](C)O2)Oc2ccc(cc2Cl)[C@H]1O; assay = broth microdilution; test system = VISA LIM-2, tryptic soy broth; setting = 20 to 24 h, 37 °C, 0.002% polysorbate 80; MIC = 2 µg/mL
Compound = C=C1NC(=O)C2CSCC3NC(=O)C(CSC(C)C(NC(=S)C(Cc4cnc[nH]4)NC(=O)c4csc(C(C)NC(C)=O)n4)C(=O)N[C@H](CC(C)C(=O)NC(=O)CC(C(=O)O)NC(=O)C(C)NC3=O)C(=O)N2)NC(=O)[C@@H]2CCCN2C(=O)[C@@H](CC(C)C)NC1=O (stereo partly shown); assay = bacterial growth; test system = NCTC 8325; MIC = > 32 µg/mL
Compound = N=C(N)NCCC[C@H](NC(=O)[C@H](CCCNC(=N)N)NC(=O)[C@H](Cc1ccccc1)NC(=O)[C@H](CO)NC(=O)[C@H](Cc1ccccc1)NC(=O)[C@H](Cc1c[nH]c2ccccc12)NC(=O)[C@H](Cc1ccccc1)NC(=O)[C@H](CO)NC(=O)[C@H](Cc1ccccc1)NC(=O)[C@H](CCCNC(=N)N)NC(=O)[C@@H](N)CCCNC(=N)N)C(N)=O; assay = broth microdilution; test system = 29213, Mueller-Hinton broth; setting = 24 h, 37 °C, lowest concentration, 95% inhibition, together with: BSA; MIC = 128 µM
Compound = C#CCOc1ccc(CN[C@@]2(C)C[C@H](O[C@H]3[C@H](Oc4c5cc6cc4Oc4ccc(cc4Cl)[C@@H](O)[C@@H](NC(=O)[C@@H](CC(C)C)NC)C(=O)N[C@@H](CC(N)=O)C(=O)N[C@H]6C(=O)N[C@H]4C(=O)N[C@H](C(=O)N[C@H](C(=O)NCC(N)=O)c6cc(O)cc(O)c6-c6cc4ccc6O)[C@H](O)c4ccc(c(Cl)c4)O5)O[C@H](CO)[C@@H](O)[C@@H]3O)O[C@@H](C)[C@H]2O)cc1OC; test system = MSSA ATCC 29213; MIC = 0.298 µM
Compound = COc1ccc2ccc(O)c(/C=N/[C@H]3CCCC[C@H]3/N=C/c3ccc(F)cc3O)c2c1; assay = bacterial growth, broth microdilution; test system = vancomycin-intermediate; MIC = > 40 µM
Compound = CC[C@H](C)[C@H](NC(=O)[C@@H](CCC(=O)O)NC(=O)[C@H](CC(C)C)NC(=O)c1cccc(C(=O)O)n1)C(=O)N[C@H]1CCCCNC(=O)[C@H](CC(N)=O)NC(=O)[C@@H](CC(=O)O)NC(=O)[C@H](Cc2c[nH]cn2)NC(=O)[C@@H](Cc2ccccc2)NC(=O)[C@H]([C@@H](C)CC)NC(=O)[C@@H](CCCN)NC1=O; test system = USA300 methicillin-resistant; setting = 18 h, 37 °C, 0.3 mM ZnSO4 LB; MIC = > 64 µg/mL
Compound = CN[C@H](CC(C)C)C(=O)N[C@H]1C(=O)N[C@@H](CC(N)=O)C(=O)N[C@H]2C(=O)N[C@H]3C(=O)N[C@H](C(=O)N[C@H](C(=O)NCc4cn(CCCCC(=O)N[C@H](C(=O)N[C@@H](CCN)C(=O)N[C@H]5CCNC(=O)[C@H]([C@@H](C)O)NC(=O)[C@H](CCN)NC(=O)[C@H](CCN)NC(=O)[C@H](CC(C)C)NC(=O)[C@@H](CC(C)C)NC(=O)[C@H](CCN)NC5=O)[C@@H](C)O)nn4)c4cc(O)cc(O)c4-c4cc3ccc4O)[C@H](O)c3ccc(c(Cl)c3)Oc3cc2cc(c3O[C@@H]2O[C@H](CO)[C@@H](O)[C@H](O)[C@H]2O[C@H]2C[C@](C)(N)[C@H](O)[C@H](C)O2)Oc2ccc(cc2Cl)[C@H]1O; test system = VRSA 2 vanA; MIC = 25 µM
Compound = CC(C)C[C@H](NC(=O)[C@H](CCCCN)NC(=O)C1CCCC=CCCC(NC(=O)[C@H](CCCCN)NC(=O)[C@@H](N)CC(C)C)C(=O)N[C@@H](CCCCN)C(=O)N[C@@H](CC(C)C)C(=O)N[C@@H](CCCCN)C(=O)N2CCC[C@@H]2C(=O)NCC(=O)N[C@@H](CCCCN)C(=O)N[C@@H](CC(C)C)C(=O)N[C@@H](CCCCN)C(=O)N1)C(N)=O (stereo partly shown); assay = broth microdilution; test system = ATCC 29737, Mueller-Hinton broth; setting = 18 h, 37 °C; MIC = 32 µM

Some of these lines once more:
Compound = COc1ccc2ccc(O)c(/C=N/[C@H]3CCCC[C@H]3/N=C/c3ccc(F)cc3O)c2c1; assay = bacterial growth, broth microdilution; test system = vancomycin-intermediate; MIC = > 40 µM
Compound = N=C(N)NCCC[C@H](NC(=O)[C@H](CCCNC(=N)N)NC(=O)[C@H](Cc1ccccc1)NC(=O)[C@H](CO)NC(=O)[C@H](Cc1ccccc1)NC(=O)[C@H](Cc1c[nH]c2ccccc12)NC(=O)[C@H](Cc1ccccc1)NC(=O)[C@H](CO)NC(=O)[C@H](Cc1ccccc1)NC(=O)[C@H](CCCNC(=N)N)NC(=O)[C@@H](N)CCCNC(=N)N)C(N)=O; assay = broth microdilution; test system = 29213, Mueller-Hinton broth; setting = 24 h, 37 °C, lowest concentration, 95% inhibition, together with: BSA; MIC = 128 µM
